Assay results of several laboratories.
Every numbered part comes from another study and shows a few of its results, in no order. Positions count from the first letter of the parent shown.

Block 1 — method: DHFR PCA, deep sequencing; matrix: yeast; with: (+)-ABA 1.4 µM; relative to: wild-type fitted maximum; direction: higher = stronger binding
Target: ABI1, truncated, D143A, DHFR fusion (Arabidopsis thaliana)
Setting: methotrexate growth selection, single substitutions
Starting sequence: PYL1, truncated, DHFR fusion (Arabidopsis thaliana); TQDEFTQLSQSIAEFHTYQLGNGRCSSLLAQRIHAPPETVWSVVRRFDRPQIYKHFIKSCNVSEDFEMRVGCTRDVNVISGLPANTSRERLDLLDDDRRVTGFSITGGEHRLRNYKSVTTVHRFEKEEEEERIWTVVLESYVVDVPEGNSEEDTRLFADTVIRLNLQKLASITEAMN
For `L8G`, “relative binding score” read -3.93%.
For `V118L`, “relative binding score” read 10.1%.
`T17V` — result for “relative binding score”: 12.4%.
`P36E`: “relative binding score” 40.4%.
Under “relative binding score”, `N177C` is recorded as 69.4%.
Under “relative binding score”, `A175H` is recorded as 46.7%.
Under “relative binding score”, `V121S` is recorded as -7.12%.
`K54S` — result for “relative binding score”: -1.42%.
For `I79W`, “relative binding score” read 40.8%.
`D65C`: “relative binding score” 26.4%.
`E89C`: “relative binding score” -3.13%.
`E130Y` — result for “relative binding score”: 39.9%.
For `Y53F`, “relative binding score” read 9.25%.

Block 2 — method: protein-binding microarray; molecule type: double-stranded DNA, one strand shown; matrix: in vitro; tested at: 2200 nM top; setting: 60-bp whole probe; with: salmon DNA 0.4 mg/ml; relative to: random background probes; direction: higher = stronger binding; constant ends, left off below: GCCTAGCAC … GTCTTGATTCGCTTGACGCTGCTG
Target: Interferon regulatory factor 7, full length, phosphomimetic (IRF7, Homo sapiens, UniProt Q92985, residues 1-503, S471D/S472D/S475D/S476D/S477D/S483D/S484D/S487D)
Target sequence (chain): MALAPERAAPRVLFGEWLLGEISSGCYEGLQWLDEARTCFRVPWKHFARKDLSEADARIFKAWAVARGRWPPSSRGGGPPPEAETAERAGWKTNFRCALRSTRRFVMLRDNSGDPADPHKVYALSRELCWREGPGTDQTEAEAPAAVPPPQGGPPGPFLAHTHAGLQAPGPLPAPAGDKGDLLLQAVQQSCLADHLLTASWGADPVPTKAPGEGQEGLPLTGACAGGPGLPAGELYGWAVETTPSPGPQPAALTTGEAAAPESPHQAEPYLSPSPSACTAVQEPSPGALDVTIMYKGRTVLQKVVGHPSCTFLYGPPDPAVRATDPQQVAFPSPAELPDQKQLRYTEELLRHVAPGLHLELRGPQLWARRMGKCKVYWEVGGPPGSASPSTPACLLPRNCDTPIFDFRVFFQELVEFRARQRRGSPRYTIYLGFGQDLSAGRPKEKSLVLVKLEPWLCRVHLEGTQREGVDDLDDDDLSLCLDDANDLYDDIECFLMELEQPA
For `GTCATACGAGCGGTAGCCAAGTGCTAG`, “fitted relative affinity” read -0.141 z-score.
For `GAGGAACTGAGTTTCGAGACGTGCTAG`, “fitted relative affinity” read 1.71 z-score.
Under “fitted relative affinity”, `CTTTAACTCATTCTCCACTTGTGCTAG` is recorded as 1.47 z-score.
Under “fitted relative affinity”, `TTAGGTTTCGGTATCGGATAGTGCTAG` is recorded as 7.41 z-score.
`GACGGACTTGACTTTCGGGACGTGCTA` — result for “fitted relative affinity”: 2.52 z-score.
Under “fitted relative affinity”, `TTAGAACTGGGACTGGGTTAGTGCTAG` is recorded as -0.578 z-score.
`GAAGAACTGGGGACTGGAGACGTGCTA` — result for “fitted relative affinity”: -0.421 z-score.
`GTTCTTATCCTTCCCCTCTAGTGCTAG`: “fitted relative affinity” 2.54 z-score.
Under “fitted relative affinity”, `CTAGAACTGAGTTTCGATTAGTGCTAG` is recorded as 3.78 z-score.
`GACGGTCTCCGTATCCTGACGTGCTAG`: “fitted relative affinity” 0.524 z-score.
`TTAGAAATGAGTCTCGATTAGTGCTAG` — result for “fitted relative affinity”: -0.57 z-score.
For `TCAGTCTTGGTTCTCAGACTGTGCTAG`, “fitted relative affinity” read 1.01 z-score.
Under “fitted relative affinity”, `TTACGTATCGGTTTCGGTTAGTGCTAG` is recorded as 7.8 z-score.
Under “fitted relative affinity”, `TCATCTTCTCCTCTAGGACTGTGCTAG` is recorded as 1.45 z-score.

Block 3 — target: CCNF, cyclin fold, Cln2 fusion (human); method: yeast growth competition, sequencing; matrix: yeast; setting: weak parent motif; relative to: not given; direction: higher = stronger binding
Starting sequence: PKN2 docking peptide (human); DSTVTKLDFDLEP
For `DSTVTKLDFDLEA [P13A]`, “normalised enrichment score” read 0.202.
For `DSTVTALDFDLEP [K6A]`, “normalised enrichment score” read -0.401.
Under “normalised enrichment score”, `DSTATKLDFDLEP [V4A]` is recorded as 0.428.
Under “normalised enrichment score”, `DSTVTKLDFALEP [D10A]` is recorded as -0.318.
Under “normalised enrichment score”, `DSAVTKLDFDLEP [T3A]` is recorded as 0.616.
`DSTVAKLDFDLEP [T5A]` — result for “normalised enrichment score”: -0.242.

Other studies, line by line
The fold induction of `PhoQ, residues 284 288 289 292 302 303 SLANKL` is reported as 9.23 (PhoP, residues 12 14 15 18 19 NQGLL (Escherichia coli, UniProt P23836); Sort-seq, measured: YFP reporter; E. coli; PhoQ-PhoP variant library, with: 10 µM Mg2+; relative to: high Mg2+ state, higher = stronger signaling).

For quick reference, copied from above (block 1):
`D65C`: “relative binding score” 26.4%.
`E89C`: “relative binding score” -3.13%.
`E130Y` — result for “relative binding score”: 39.9%.
